Published values collected from several papers.
Protocols differ between the studies behind these lines. ± gives the spread as reported.
Chain of UniProt Q8NKB0 (whole entry, unmodified, looked up): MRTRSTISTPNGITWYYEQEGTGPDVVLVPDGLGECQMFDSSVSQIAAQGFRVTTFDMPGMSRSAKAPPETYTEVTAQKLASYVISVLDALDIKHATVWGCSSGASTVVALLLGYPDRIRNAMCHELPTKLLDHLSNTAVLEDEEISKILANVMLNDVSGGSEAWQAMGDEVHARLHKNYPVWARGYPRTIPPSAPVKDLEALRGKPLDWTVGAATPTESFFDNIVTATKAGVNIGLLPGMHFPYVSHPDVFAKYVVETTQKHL
Chain of UniProt P42330 (whole entry, looked up): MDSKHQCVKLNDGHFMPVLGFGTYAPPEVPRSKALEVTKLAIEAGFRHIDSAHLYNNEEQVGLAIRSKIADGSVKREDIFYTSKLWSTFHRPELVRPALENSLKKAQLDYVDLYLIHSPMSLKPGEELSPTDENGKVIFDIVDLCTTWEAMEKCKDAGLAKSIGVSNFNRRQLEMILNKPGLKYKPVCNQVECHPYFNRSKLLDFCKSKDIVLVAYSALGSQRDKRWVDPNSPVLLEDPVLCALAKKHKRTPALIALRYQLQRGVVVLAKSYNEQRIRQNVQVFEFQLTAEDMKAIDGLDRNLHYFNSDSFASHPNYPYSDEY
Chain of UniProt O00748 (whole entry, looked up): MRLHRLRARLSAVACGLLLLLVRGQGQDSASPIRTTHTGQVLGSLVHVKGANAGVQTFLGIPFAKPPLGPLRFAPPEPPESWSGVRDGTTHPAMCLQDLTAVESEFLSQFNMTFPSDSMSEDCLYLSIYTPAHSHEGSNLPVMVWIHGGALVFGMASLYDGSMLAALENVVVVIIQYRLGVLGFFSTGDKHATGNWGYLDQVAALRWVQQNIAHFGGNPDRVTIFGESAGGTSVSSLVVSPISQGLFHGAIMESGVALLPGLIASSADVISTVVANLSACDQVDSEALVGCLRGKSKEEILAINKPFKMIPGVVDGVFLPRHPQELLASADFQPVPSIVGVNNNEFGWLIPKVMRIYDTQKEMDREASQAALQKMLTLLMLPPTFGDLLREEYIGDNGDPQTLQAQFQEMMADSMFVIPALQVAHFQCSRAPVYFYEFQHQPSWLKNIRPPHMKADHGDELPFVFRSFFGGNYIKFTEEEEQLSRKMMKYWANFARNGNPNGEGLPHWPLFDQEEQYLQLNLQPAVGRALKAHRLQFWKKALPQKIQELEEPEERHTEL
Chain of UniProt P09958 (whole entry, looked up): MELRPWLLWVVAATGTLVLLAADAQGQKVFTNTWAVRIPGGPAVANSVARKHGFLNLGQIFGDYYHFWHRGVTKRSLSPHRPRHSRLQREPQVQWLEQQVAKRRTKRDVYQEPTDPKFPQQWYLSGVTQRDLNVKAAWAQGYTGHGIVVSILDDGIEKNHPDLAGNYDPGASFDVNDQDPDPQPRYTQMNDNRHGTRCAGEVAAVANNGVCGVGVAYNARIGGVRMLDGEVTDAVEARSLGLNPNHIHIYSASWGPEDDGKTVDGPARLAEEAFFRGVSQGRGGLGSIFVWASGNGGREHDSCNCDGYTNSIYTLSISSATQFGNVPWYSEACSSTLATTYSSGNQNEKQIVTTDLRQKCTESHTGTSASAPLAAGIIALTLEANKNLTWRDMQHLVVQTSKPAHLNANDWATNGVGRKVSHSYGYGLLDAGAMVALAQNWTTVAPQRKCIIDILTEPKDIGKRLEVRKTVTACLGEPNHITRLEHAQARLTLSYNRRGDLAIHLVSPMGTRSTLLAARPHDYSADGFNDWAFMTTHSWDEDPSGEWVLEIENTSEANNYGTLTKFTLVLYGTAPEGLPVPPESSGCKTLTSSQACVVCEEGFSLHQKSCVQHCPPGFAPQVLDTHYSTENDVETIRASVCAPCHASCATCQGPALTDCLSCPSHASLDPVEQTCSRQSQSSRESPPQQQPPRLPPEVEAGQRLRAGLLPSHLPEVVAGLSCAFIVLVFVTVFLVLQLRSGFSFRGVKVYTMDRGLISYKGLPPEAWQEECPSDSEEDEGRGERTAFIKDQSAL
Chain of UniProt Q8N695 (whole entry, looked up): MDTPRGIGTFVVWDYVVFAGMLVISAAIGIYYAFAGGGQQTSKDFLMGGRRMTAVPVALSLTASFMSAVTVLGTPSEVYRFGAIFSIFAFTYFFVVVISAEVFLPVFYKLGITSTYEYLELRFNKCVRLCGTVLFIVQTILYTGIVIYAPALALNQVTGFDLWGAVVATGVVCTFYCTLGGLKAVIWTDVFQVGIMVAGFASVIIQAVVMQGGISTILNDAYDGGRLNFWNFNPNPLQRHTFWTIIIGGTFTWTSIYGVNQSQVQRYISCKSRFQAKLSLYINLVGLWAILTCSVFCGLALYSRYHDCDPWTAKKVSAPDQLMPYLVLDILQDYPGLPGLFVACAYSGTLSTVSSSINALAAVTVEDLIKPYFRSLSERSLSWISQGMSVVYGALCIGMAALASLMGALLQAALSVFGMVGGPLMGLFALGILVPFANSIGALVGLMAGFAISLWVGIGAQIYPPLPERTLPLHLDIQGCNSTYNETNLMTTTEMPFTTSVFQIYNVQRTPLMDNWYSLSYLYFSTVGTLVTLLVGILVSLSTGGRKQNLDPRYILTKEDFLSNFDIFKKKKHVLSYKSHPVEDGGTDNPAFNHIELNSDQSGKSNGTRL

SMILES | target | assay | system | setting | Km [µM]
CC(=O)N[C@@H](CCCNC(=N)N)C(=O)N[C@H](C(=O)N[C@@H](CCCNC(=N)N)C(=O)N[C@@H](CCCNC(=N)N)C(=O)N[C@@H](CSSC(C)(C)C)C(=O)N[C@@H](CCCCNC(=O)c1ccc(F)cc1)C(=O)Nc1ccc2nc(C#N)sc2c1)C(C)C | Furin (FURIN, Homo sapiens, UniProt P09958) | enzyme activity, substrate, HPLC |  |  | 242
CC(C)[C@H](N)C(=O)N[C@@H](CCCNC(=N)N)C(=O)Nc1ccc2c(CC(N)=O)cc(=O)oc2c1 | DPAP1 (Plasmodium falciparum, UniProt Q8IIJ9) | hydrolysis, substrate, fluorogenic dipeptide, native enzyme |  | pH 6.0, 25 °C, together with: 30 mM chloride | 21 ± 2
COC1=C(OC)C(=O)C(C)=CC1=O | Type II NADH dehydrogenase (Plasmodium falciparum, UniProt Q8I302) | enzyme activity, substrate |  | together with: co-substrate 500 µM | 104 ± 6.6
Cc1cn([C@H]2C[C@H](O)[C@@H](CO)O2)c(=O)[nH]c1=O | Trichomonas vaginalis higher-affinity nucleoside transporter | substrate | trophozoites, Trichomonas vaginalis | higher-affinity component | ~20
CC(C)C(=O)C(=O)O | 2-isopropylmalate synthase, heterodimer with wild-type (leuA, Neisseria meningitidis serogroup B, UniProt Q9JZG1, R32Q) | enzyme activity, substrate, DTP-coupled |  | R32Q heterodimer, one chain, together with: acetyl-CoA 300 µM | 48 ± 6
Nc1ncnc2c1ncn2[C@@H]1O[C@H](COP(=O)(O)OP(=O)(O)OP(=O)(O)O)[C@@H](O)[C@H]1O | Tyrosine--tRNA ligase 1 (tyrS1, Pseudomonas aeruginosa, UniProt Q9HWP3) | substrate, ATP-PPi exchange |  | TyrRS-S, co-substrate 2 mM | 204
CC(=O)SCCNC(=O)CCNC(=O)[C@H](O)C(C)(C)COP(=O)(O)OP(=O)(O)OC[C@H]1O[C@@H](n2cnc3c(N)ncnc32)[C@H](O)[C@@H]1OP(=O)(O)O | 2-isopropylmalate synthase (leuA, Neisseria meningitidis serogroup B, UniProt Q9JZG1) | substrate, DTP-coupled |  | pH 7.5, 25 °C, wild-type enzyme, together with: α-ketoisovalerate 300 µM | 39 ± 5
Cc1cc(=O)oc2c(F)c(OP(=O)(O)O)c(F)cc12 | PTPN11 (Homo sapiens, UniProt Q06124) | substrate |  | pH 7.2 | 5800 ± 700
CCCCCCCCCCCC(=O)OC1=CC(C)(C)N([O])C(C)(C)C1 | Cocaine esterase (CES2, Homo sapiens, UniProt O00748) |  |  |  | 48.1 ± 4.29
CC(C)=CC(=O)SCCNC(=O)CCNC(=O)[C@H](O)C(C)(C)COP(=O)(O)OP(=O)(O)OC[C@H]1O[C@@H](n2cnc3c(N)ncnc32)[C@H](O)[C@@H]1OP(=O)(O)O | Rhodopseudomonas palustris LCC | substrate, coupled ATPase |  | pH 7.5, together with: ATP 1.5 mM, KHCO3 40 mM | 1100 ± 100
c1ccc(C2CO2)cc1 (racemic) | Karenia brevis epoxide hydrolase | substrate |  | pH 7.0 | 6570
CCCCCCCC(=O)Oc1cc(C(=O)O)ccc1[N+](=O)[O-] | phospholipase A2 PhTX-III (Bothrocophias hyoprora) | substrate |  | pH 8.0, 37 °C | 4430
OCCSSCCO | A438L (Paramecium bursaria Chlorella virus 1, UniProt Q98489) |  |  |  | 2100
COc1ccc2cc(C(C#N)OC(=O)CC3OC3c3ccccc3)ccc2c1 (centres unmarked) | Karenia brevis epoxide hydrolase | substrate |  | pH 7.0 | 13.6
CN(CCCC(=O)c1cccnc1)N=O | AKR1C3 (Homo sapiens, UniProt P42330) | substrate |  |  | 1150 ± 300
C[C@H]1CCCC(=O)CCC/C=C/c2cc(O)cc(O)c2C(=O)O1 | zhd101 (Clonostachys rosea, UniProt Q8NKB0, D133K) | substrate, HPLC |  | 10 min, pH 5.5, 37 °C, 1% acetonitrile | 78400 ± 4900
NC(=O)C1=CN([C@@H]2O[C@H](COP(=O)(O)OP(=O)(O)OC[C@H]3O[C@@H](n4cnc5c(N)ncnc54)[C@H](OP(=O)(O)O)[C@@H]3O)[C@@H](O)[C@H]2O)C=CC1 | GMP reductase (GMPR, Leishmania major, UniProt Q4QEB3) | substrate |  | pH 6.9, 25 °C, together with: GMP 300 µM | 9 ± 2
O=[N+]([O-])c1ccc(Cl)c([N+](=O)[O-])c1 | GST1 (Clonorchis sinensis, UniProt A1BNE5) | substrate |  |  | 2280
O=C(O)C(Cl)(Cl)Cl | SLC5A8 (Homo sapiens, UniProt Q8N695) | substrate, two-electrode voltage clamp | Xenopus laevis oocytes |  | 134 ± 11
C/C1=C2/N[C@H]([C@H](CC(N)=O)[C@@]2(C)CCC(=O)NC[C@@H](C)OP(=O)(O)O[C@H]2[C@@H](O)[C@@H](n3cnc4cc(C)c(C)cc43)O[C@@H]2CO)[C@]2(C)N=C(/C(C)=C3N=C(/C=C4N=C1[C@@H](CCC(N)=O)C\4(C)C)[C@@H](CCC(N)=O)[C@]\3(C)CC(N)=O)[C@@H](CCC(N)=O)[C@]2(C)CC(N)=O.[Co] | Corrinoid adenosyltransferase CobA (btuR, Salmonella typhimurium, UniProt P31570, F91A) |  |  |  | 5 ± 1
